Assay results gathered from unrelated publications.
Each line is one published result; not all experiments were run side by side. Values joined by “and” are separate records of one study, mostly repeats; a detail may differ. ± marks the error that the study gave. Values after ≈ are worked out from the molar mass of the structure shown.

CC(C)C(=O)OC[C@H]1O[C@@H](n2ccc(NO)nc2=O)[C@H](O)[C@@H]1O
IC90 (influenza A virus H1N1; viral replication, NP ELISA; MDCK): 81.4 ± 23.2 µM

O=C1c2c(O)c(=O)ccn2N([C@@H]2c3ccccc3SCc3c2ccc(F)c3F)[C@@H]2COCCN12
lung virus titre (influenza A virus H1N1; A/WSN/33, BALB/c mice, lung; subcutaneous, 0.5 mg/kg every 6 h, 24 h): 2 log10 TCID50/mL and 3 log10 TCID50/mL and 2.67 log10 TCID50/mL

COc1cc(NC(=O)Cn2ccc3cc(F)c(-c4cnn(C)c4)cc32)cc(OC)c1OC
EC50 fold shift (Plasmodium falciparum; Dd2 PfATP4 D425E; 72 h; relative to: mutant over parental): 4 fold

CCCCCCCCCCCC[N+](C)(C)CCCNCCC[N+](C)(C)CCCCCCCCCCCC.[Br-].[Br-]
protection (influenza A virus A/PR/8/34 (H1N1); concentration not given, co-treatment): 65.4 ± 0.9%

Oc1c(Cl)cc(Cl)cc1-c1[nH]c(Cl)c(Cl)c1Cl
MIC (Vibrio cholerae; El Tor): 4 µM

NC(=O)c1ncn([C@@H]2O[C@H](CO)[C@@H](O)[C@H]2O)n1
IC90 (influenza A virus H1N1; viral replication, NP ELISA; MDCK): 8.82 ± 1.09 µM

CCCCCCCCCCCCCCCC[N+](C)(C)CCCCCCCCCCCC[N+](C)(C)CCCCCCCCCCCCCCCC.[Br-].[Br-]
protection (influenza A virus A/PR/8/34 (H1N1); concentration not given, pre-treatment): 68.9 ± 8.9%

C=C(CN(C(=O)c1c(C(F)F)nn(C)c1F)C1CC1)c1ccc(Cl)cc1Cl
EC50 (Fusarium pseudograminearum; spore germination; 12 h, 28 °C): 0.071 µg/mL

CCCCCCCCCCCC[N+](C)(C)CCCCCCCCCC[N+](C)(C)CCCCCCCCCCCC.[Br-].[Br-]
protection (influenza A virus A/PR/8/34 (H1N1); concentration not given, pre-treatment): 40.9 ± 18.4%

O=c1ccn([C@@H]2O[C@](F)(CO)[C@@H](O)[C@H]2O)c(=O)[nH]1
normalized viral replication (human respiratory syncytial virus; recombinant reporter virus; concentration not given, scale 0 to 100, together with: adenosine 11.1 µM): 0 and 0.04

OC(Cn1cncn1)(Cn1cncn1)c1ccc(F)cc1F
OD600 (Saccharomyces cerevisiae; cell growth; Pdr5 deleted, Cdr1 overexpressed; 2^4.907 µg/mL): 0.967 and 0.91 and 0.926

CC[C@H](C)[C@H](NC(=O)[C@H](C)NC(=O)[C@H](CCCNC(=N)N)NC(=O)[C@H](CCCNC(=N)N)NC(=O)[C@@H](N)CCCNC(=N)N)C(=O)N[C@@H](CO)C(=O)NCC(=O)N[C@@H](CO)C(=O)N[C@@H](CC(C)C)C(=O)N[C@H](C(=O)N[C@H](C(=O)N[C@@H](CC(C)C)C(=O)N[C@@H](Cc1ccccc1)C(=O)NCC(=O)N[C@@H](Cc1ccc(O)cc1)C(=O)N[C@@H](CCCNC(=N)N)C(=O)N[C@@H](CCCNC(=N)N)C(=O)N[C@@H](CCCNC(=N)N)C(N)=O)[C@@H](C)O)C(C)C
MIC (ESKAPE pathogen panel; range over entire panel): 8 to 128 µM

CC(N)C12CC3CC(CC(C3)C1)C2 (centres unmarked)
EC50 (influenza B virus; viral cytopathic effect, MTS; MDCK): > 200 µM

CCCCCCCCCCCC[N+](C)(C)CCCCCC[N+](C)(C)CCCCCCCCCCCC.[Br-].[Br-]
HA titre reduction (influenza A virus A/PR/8/34 (H1N1); concentration not given, post-treatment): 1.5 ± 0.5 log units

[Ca+2]
inhibition (Halyomorpha halys; outward current, inhibitor, electrophysiology; 1 mM, C-terminal deletion): 13.6%

CCCCCCC#Cc1cncc(-c2nnc(SCc3cc([N+](=O)[O-])cc([N+](=O)[O-])c3)n2C)c1
MIC (Mycobacterium avium; no activity below value): ≥ 200 µM

CC(=O)N[C@H]1[C@H]([C@H](O)[C@H](O)CO)OC(C(=O)O)=C[C@@H]1N=C(N)N
EC50 (influenza B virus; viral cytopathic effect, MTS; MDCK): 2 µM

CCCCCCCCCCCCCCCCCC[N+](C)(C)CCCCCCCCCCCC[N+](C)(C)CCCCCCCCCCCCCCCCCC.[Br-].[Br-]
protection (influenza A virus A/PR/8/34 (H1N1); concentration not given, post-treatment): 75.9 ± 3.1%

CO[C@H]1/C=C/O[C@@]2(C)Oc3c(C)c(O)c4c(O)c(c(/C=N/N5CCN(C)CC5)c(O)c4c3C2=O)NC(=O)/C(C)=C\C=C\[C@H](C)[C@H](O)[C@@H](C)[C@@H](O)[C@@H](C)[C@H](OC(C)=O)[C@@H]1C
MIC (Mycobacterium ulcerans; ATCC 35840): 0.1 to 0.2 µg/mL

CCCCCCCCCCCCCCCC[N+](C)(C)Cc1ccc(C[N+](C)(C)CCCCCCCCCCCCCCCC)cc1.[Br-].[Br-]
protection (influenza A virus A/PR/8/34 (H1N1); concentration not given, post-treatment): 70.7 ± 5.2%

NC12CC3CC(CC(C3)C1)C2
EC50 (influenza B virus; viral cytopathic effect, MTS; MDCK): > 200 µM

Sc1ncnc2nc[nH]c12
IC90 (influenza A virus H1N1; viral replication, NP ELISA; MDCK): 29.8 ± 13 µM

CCCCCCCCCCCCCCCCCC[N+](C)(C)Cc1ccc(C[N+](C)(C)CCCCCCCCCCCCCCCCCC)cc1.[Br-].[Br-]
HA titre reduction (influenza A virus A/PR/8/34 (H1N1); concentration not given, pre-treatment): 3.5 ± 0.5 log units

CS(=O)(=O)Nc1ncn(-c2cc(F)c(COc3ccc(OS(=O)(=O)F)cc3)c(F)c2)n1
lung CFU reduction (Mycobacterium tuberculosis Erdman-Lux; BALB/c mouse; oral, 20 mg/kg once daily, 12 days, unit not given; relative to: untreated): 3.1

CCC(CC)O[C@@H]1C=C(C(=O)O)C[C@H](N)[C@H]1NC(C)=O
HA titre reduction (influenza A virus A/PR/8/34 (H1N1); concentration not given, pre-treatment): 8 log units

Cn1c(=O)ccc2ccc(F)c(CCNC[C@H]3CN(c4cnc5c(n4)NC(=O)CO5)C(=O)O3)c21
MIC50 (Burkholderia gladioli): 0.06 µg/mL (≈ 0.128 µM)

Repeated from above:
COc1cc(NC(=O)Cn2ccc3cc(F)c(-c4cnn(C)c4)cc32)cc(OC)c1OC
EC50 fold shift (Plasmodium falciparum; Dd2 PfATP4 D425E; 72 h; relative to: mutant over parental): 4 fold
